Results gathered from unrelated publications.
Each numbered part is a random draw from the data of one study; scales do not carry over between parts. Substitutions count along the parent as printed.

Study 1
Target: PABPC1L2, full length, GST fusion (mouse, UniProt A0ABA7IW68)
Technique: RNAcompete
Form: RNA
Matrix: in vitro
Tested at: 20 nM
Setting: 7-mer, probes averaged, single round
Reference: mean of 7-mers
Reading: higher = stronger binding
Measurement: 7-mer Z-score
Residues (chain): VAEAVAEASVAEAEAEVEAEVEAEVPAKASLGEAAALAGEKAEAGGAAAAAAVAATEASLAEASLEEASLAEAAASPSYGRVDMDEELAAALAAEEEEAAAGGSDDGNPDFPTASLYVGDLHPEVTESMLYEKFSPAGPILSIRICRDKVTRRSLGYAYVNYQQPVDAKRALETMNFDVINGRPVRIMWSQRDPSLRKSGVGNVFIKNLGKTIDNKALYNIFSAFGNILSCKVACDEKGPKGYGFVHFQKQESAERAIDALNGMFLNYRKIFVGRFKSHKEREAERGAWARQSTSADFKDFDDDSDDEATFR
Sequence = CAGAGGA; result = 0.251
Sequence = CAGCAAG; result = 0.0134
Sequence = AUCGCCG; result = -0.385
Sequence = GAGAAAG; result = 0.769
Sequence = CUAUUGA; result = -0.175
Sequence = CAGAUAA; result = 0.303
Sequence = ACAGCUU; result = -0.153
Sequence = AGGGAAC; result = 0.323
Sequence = UCGAACU; result = -0.336
Sequence = CCACAAG; result = -0.222
Sequence = UACUCAC; result = -0.157
Sequence = CGCGGCG; result = -0.184
Sequence = GGUGUAU; result = 0.046
Sequence = UGAACAC; result = -0.115
Sequence = GUAGUGA; result = -0.108
Sequence = UUAUGUA; result = -0.171

Study 2
Target: RNA binding protein fox-1 homolog 2, RRM domain, GST-SBP tag (RBFOX2, Homo sapiens, UniProt O43251-10, residues 100-194)
Technique: RNA Bind-n-Seq
Form: RNA
Matrix: in vitro
Tested at: 365 nM
Setting: natural RNA segment, single round, ends assumed
Reference: no-protein control
Reading: higher = stronger binding
Measurement: RBNS enrichment (R)
All sequences stand within: GGGAGUUCUACAGUCCGACGAUC … UGGAAUUCUCGGGUGCCAA
Residues (chain): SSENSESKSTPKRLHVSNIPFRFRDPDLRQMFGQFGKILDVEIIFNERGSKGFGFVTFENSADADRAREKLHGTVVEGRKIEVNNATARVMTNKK
Sequence = UUCCCUGCUCCAUCCCUGUGGCACCAUUAUGGUUUUUUGGCUGUUUGUAUAUACGGUUACGUAUUAACUCUGGAAUCCUAUGGGCUCAUCUUGCUCACCCAAUGUGGGAG; result = 0.379
Sequence = CAACUCUAAAGAAAGGUCUCAGGUUACACAGGCCCCCCCACUUAUGUUUUCAGGGGAUGCCAUUUAUCCCAAGCUUAUCCUGUAAUUCUAGAAUGACUUGGUGUCCUGAU; result = 0.797
Sequence = UGGCCGGGAGAGACCCAGGGAGGUUCUGGAGGUUCCUUUCUGUCUCCUGGCCCCACCAGGGAUUUCCCCAUUUCUGUUUGCUGCCUGAAAGCAGGAUGAGGAAGGCCAAG; result = 1.06
Sequence = GCCAGGCCCUGCUGGAAGAGCUGGAGCACUUCGAGCAAUCGGACAUGCCUAAGGGGAGGCCCAACACCAUGAACAACUACGGGGUGCUGCUGCACGAGCUCGGGCUGGAC; result = 0.704
Sequence = AUGCAAAUGGAGAUCAAAGUAAUUCUGACUGUCCAGGAGCUAUCUCACUUUCUGCUGUGUGGGCGGCCACAUAAAAAGGCAAUUUUAGUGUAUUAAUCAUAGAUUAUUAU; result = 0.527
Sequence = UAAAGAGAGUUUUUUGGGGCCACCAAAUAUUUUGGAUCAUGCAGAGAAUAUAUAUUGUACUGUAGUAAUUUUGUAUUUACAUUUGUAUGAUGUGACAUAAUAGAUGUGAA; result = 0.617
Sequence = CCAAAGGACCUGGUUUGAUUCCCAGCACUCACACGGAGGCUCACUGACCACCUGUAACUCCUGUUCCAAAGGUUUCGAUACCUUCUGACCUCUGGGCACCAGGCGUGCAC; result = 0.276
Sequence = UCACCUCUUCCUCCAAGCCCCGCCCCCUCUGCCCCACGUGCCGGCCCUCCUGGUGCUCUAUCCACUGCAGGGCCAGCCACUCGCCAGGAGGCCACGGGCCACGGGAAGAA; result = 0.374
Sequence = AAUACCGUGUUAUCUGCUGUAUUUUCCCUGUGUGUAUAAUGUAUCUCCUUUCAGAACAGGAAUGUGCCUCCUAAUGUUUACUGUUACCCUGCUGUCUCUGUAUGUCCAGU; result = 2.1

Study 3
Target: UBE2G1 UBC core domain (UniProt P62253)
UniProt P62253, sequence (whole entry, looked up): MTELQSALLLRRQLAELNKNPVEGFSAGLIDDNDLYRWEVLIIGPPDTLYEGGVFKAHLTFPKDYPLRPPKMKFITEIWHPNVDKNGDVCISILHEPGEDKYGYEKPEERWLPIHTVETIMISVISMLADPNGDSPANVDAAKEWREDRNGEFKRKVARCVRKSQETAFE
Technique: yeast two-hybrid
Matrix: yeast
Setting: mostly zero background
Reference: not given
Reading: higher = stronger interaction
Measurement: lacZ reporter activity
B1: RNF7 RING domain (UniProt Q9UBF6); chain AICRVQVMDACLRCQAENKQEDCVVVWGECNHSFHNCCMSLWVKQNNRCPLCQQDWVVQRIGK
B2: SHPRH RING domain (UniProt Q149N8); chain KTSGGVNPEPCPICARQLGKQWAVLTCGHCFCNECISIIIEQYSVGSHRSSIKCAICRQTTSHKEISY
B3: TRIM28 RING domain (UniProt Q13263); chain GAEALELLEHCGVCRERLRPEREPRLLPCLHSACSACLGPAAPAAANSSGDGGAAGDGTVVDCPVCKQQCFSKDIVE
B4: ARIH1 RING domain (UniProt Q9Y4X5); chain NTRSSAQDMPCQICYLNYPNSYFTGLECGHKFCMQCWSEYLTTKIMEEGMGQTISCPAHGCDILVDDNTVM
B5: RNF32 RING domain (UniProt Q9H0A6); chain VQALRRETHECSICLAPLSAAGGQRVGAGRRSREMALLSCSHVFHHACLLALEEFSVGDRPPFHACPLCRSCYQKKILEC
B6: TRIM68 RING domain (UniProt Q6AZZ1); chain LVEAIVEEVACPICMTFLREPMSIDCGHSFCHSCLSGLWEIPGESQNWGYTCPLCRAPVQPRNLRP
B7: MDM2 RING domain (UniProt Q00987); chain TQDKEESVESSLPLNAIEPCVICQGRPKNGCIVHGKTGHLMACFTCAKKLKKRNKPCPVCRQPIQMIVLTYFP
Sequence = B1 (RNF7 RING domain); result = 0
Sequence = B2 (SHPRH RING domain); result = 0
Sequence = B3 (TRIM28 RING domain); result = 0
Sequence = B4 (ARIH1 RING domain); result = 0
Sequence = B5 (RNF32 RING domain); result = 0
Sequence = EDVLSKDAGECAICLEELQQGDTIARLPCLCIYHKGCIDEWFEVNRSCPEHPSD (ZNRF2 RING domain (UniProt Q8NHG8)); result = 0
Sequence = PLRRLQEEKLCKICMDRHIAVVFIPCGHLVTCKQCAEAVDRCPMCSAVIDFKQRVF (BIRC8 RING domain (UniProt Q96P09)); result = 0
Sequence = GSEEEEIPFRCFICRQAFQNPVVTKCRHYFCESCALEHFRATPRCYICDQPTGGIFNPA (RNF113B RING domain (UniProt Q8IZP6)); result = 0
Sequence = B6 (TRIM68 RING domain); result = 0
Sequence = B7 (MDM2 RING domain); result = 0

Study 4
Target: ABI1, truncated, D143A, DHFR fusion (Arabidopsis thaliana)
Technique: DHFR PCA, deep sequencing
Matrix: yeast
Setting: methotrexate growth selection, single substitutions
With: (+)-ABA 0.11 µM
Reference: wild-type fitted maximum
Reading: higher = stronger binding
Measurement: relative binding score
Starting sequence: PYL1, truncated, DHFR fusion (Arabidopsis thaliana); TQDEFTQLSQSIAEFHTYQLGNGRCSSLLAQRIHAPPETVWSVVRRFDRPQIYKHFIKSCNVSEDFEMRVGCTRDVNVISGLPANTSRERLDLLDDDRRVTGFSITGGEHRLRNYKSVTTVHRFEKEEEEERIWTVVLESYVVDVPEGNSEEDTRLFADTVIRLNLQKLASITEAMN; partner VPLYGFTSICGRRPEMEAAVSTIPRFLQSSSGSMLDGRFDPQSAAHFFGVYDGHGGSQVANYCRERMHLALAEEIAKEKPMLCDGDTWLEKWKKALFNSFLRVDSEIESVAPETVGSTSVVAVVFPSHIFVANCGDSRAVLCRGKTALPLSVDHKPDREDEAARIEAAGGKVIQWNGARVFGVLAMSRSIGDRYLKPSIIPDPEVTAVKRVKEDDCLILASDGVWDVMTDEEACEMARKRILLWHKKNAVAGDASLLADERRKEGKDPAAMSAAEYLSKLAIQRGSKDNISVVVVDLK
Substitution = V143Q; result = -2.17%
Substitution = E89N; result = 0.00576%
Substitution = R111D; result = 5.16%
Substitution = Q10Y; result = 9.5%
Substitution = G107Y; result = 4.83%
Substitution = E130T; result = 37%
Substitution = V76I; result = 54.7%
Substitution = R113E; result = 4.98%
Substitution = Q51E; result = 22.5%
Substitution = E128C; result = 36.5%
Substitution = S80T; result = 41.2%
Substitution = N149V; result = 57.2%
Substitution = F56H; result = -1.58%
Substitution = R45K; result = -1.09%

Study 5
Target: CCNA2, cyclin fold, Cln2 fusion (human)
Technique: yeast growth competition, sequencing
Matrix: yeast
Setting: strong parent motif
Reference: not given
Reading: higher = stronger binding
Measurement: normalised enrichment score
Starting sequence: CDC25A docking peptide (human); PPHRRRLLFACSP
Substitution = PPHRRILLFACSP [R6I]; result = 1.53
Substitution = PPHRRRLLFATSP [C11T]; result = 2.68
Substitution = PPHRRRLLFAMSP [C11M]; result = 2.08
Substitution = PPHRGRLLFACSP [R5G]; result = 1.04
Substitution = PPHRRRLTFACSP [L8T]; result = 3.22
Substitution = PGHRRRLLFACSP [P2G]; result = 3.27
Substitution = PPYRRRLLFACSP [H3Y]; result = 3.47
Substitution = PPHRRRLLFACIP [S12I]; result = 2.75
Substitution = PDHRRRLLFACSP [P2D]; result = 1.79
Substitution = PPHRRRLLFACHP [S12H]; result = 2.08
Substitution = PPHRRRLLFAYSP [C11Y]; result = 2.22
Substitution = PPTRRRLLFACSP [H3T]; result = 5.24
Substitution = PPHRRRLLVACSP [F9V]; result = 1.41
Substitution = PPHRRRLLFACSS [P13S]; result = 1.98

Repeated from above (study 3):
Sequence = EDVLSKDAGECAICLEELQQGDTIARLPCLCIYHKGCIDEWFEVNRSCPEHPSD (ZNRF2 RING domain (UniProt Q8NHG8)); result = 0
Sequence = B1 (RNF7 RING domain); result = 0
Sequence = GSEEEEIPFRCFICRQAFQNPVVTKCRHYFCESCALEHFRATPRCYICDQPTGGIFNPA (RNF113B RING domain (UniProt Q8IZP6)); result = 0
Sequence = B3 (TRIM28 RING domain); result = 0
Sequence = PLRRLQEEKLCKICMDRHIAVVFIPCGHLVTCKQCAEAVDRCPMCSAVIDFKQRVF (BIRC8 RING domain (UniProt Q96P09)); result = 0
Sequence = B4 (ARIH1 RING domain); result = 0
Sequence = B7 (MDM2 RING domain); result = 0
Sequence = B2 (SHPRH RING domain); result = 0
